Assay results from different studies.
Parts stem from different laboratories: compare values within a part only. Positions count from the first letter of the parent shown.

Block 1
Target: Histone acetyltransferase KAT6A, winged helix 2, GST fusion (KAT6A, Homo sapiens, UniProt Q92794, residues 85-181)
Technique: protein binding microarray
Form: double-stranded DNA, one strand shown
Sample: in vitro
Concentration: not given
Setting: 8-mer, flanks averaged, mean of 2 arrays, mostly near background
Reference: not given
Direction: higher = stronger binding
Quantity: E-score
Residues (chain): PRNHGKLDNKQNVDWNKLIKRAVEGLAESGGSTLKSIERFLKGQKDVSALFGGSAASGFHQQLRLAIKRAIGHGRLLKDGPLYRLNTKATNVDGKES
CGAAAGCA: 0.168
GGTAAGGA: -0.0357
ACGGATAT: 0.0619
GATATCAC: -0.0631
CTACGCGC: 0.0796
ACCGTGGC: 0.0197
CGTCTCTA: -0.0777
AGTTTTAC: 0.0205

Block 2
Target: Fragile X messenger ribonucleoprotein 1, C-terminal low-complexity region (Fmr1, Mus musculus, UniProt P35922)
Technique: RNA Bind-n-Seq
Form: RNA
Sample: in vitro
Concentration: 200 nM
Setting: whole 134-nt RNA, ends assumed
Added: 150 mM LiCl
Reference: input library
Direction: higher = stronger binding
Quantity: log2 enrichment
Library: 7-deaza-guanosine replaces G
Constant ends, left off below: GGGAGUUCUACAGUCCGACGAUC … UGGAAUUCUCGGGUGUCAAGG
CAAGUCCUGUGCUACACAUCGUAUGUACCGAAUCGGGUUUUUGGGUUUGGGUGGGAAAGUAUUAUGUUACGCCGUUCGGAUCUGCACUUC: -1.4
UUCCUUCCACGACCCCUGAAGAGCAGCGGUGGGUCUGAGCAUCCUAUCUCCAGGAAGCAGGCCAGCAGGCAAGCCAGCUGCCACCUCGUC: 0.743
UGUGCUACACAUCGUAUGUACCGAAUCGGGGUUUUUUUGGGGAAAAAGGGGUUUUUUUGGGGAAAGUAUUAUGUUACGCCGUUCGGAUCU: -1.79
UUUCUCCAAGGACAUCAAGGUGCCCAAGAGCCGCUACCUGGGCUACAUCAAGGACUACGAGGGAGCGACGCUGAUGGAGUGUGAGCUGAA: -2
UCCUGUGCUACACAUCGUAUGUACCGAAUCGGGGUUUUUUGGGGUUUUUUGGUUUUUUGGAAAGUAUUAUGUUACGCCGUUCGGAUCUGC: -0.179
GUCCUGUGCUACACAUCGUAUGUACCGAAUCGGGGUUUUUGGUUUUUGGGUUUUUGGGGAAAGUAUUAUGUUACGCCGUUCGGAUCUGCA: -1.21
UCCUGUGCUACACAUCGUAUGUACCGAAUCAAAUUUUUUUAAAUUUUUAAAUUUUUAAAAAAGUAUUAUGUUACGCCGUUCGGAUCUGCA: -2.46
CACAGACAACACGCACCCACACAGACACAGAGGGAAAAGGUUGGGAUGGGGACAGGGUGCACAGCAGGGCGGGGUAGGACCCCAGCCCCU: -1.44

Block 3
Target: CCNE2, cyclin fold, Cln2 fusion (human)
Technique: yeast growth competition, sequencing
Sample: yeast
Setting: strong parent motif
Reference: not given
Direction: higher = stronger binding
Quantity: normalised enrichment score
Starting sequence: viral docking peptide; KKAKRRLFTISDS; partner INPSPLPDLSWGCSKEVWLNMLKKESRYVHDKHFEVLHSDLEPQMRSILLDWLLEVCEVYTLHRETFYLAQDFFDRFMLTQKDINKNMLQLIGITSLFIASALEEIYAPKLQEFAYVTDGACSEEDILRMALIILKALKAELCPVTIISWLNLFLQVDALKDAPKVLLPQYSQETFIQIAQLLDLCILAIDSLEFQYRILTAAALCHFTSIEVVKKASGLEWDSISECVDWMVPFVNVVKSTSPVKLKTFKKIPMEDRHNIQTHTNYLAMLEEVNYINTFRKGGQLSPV
K1A: 2.81
F8A: 0.705
T9A: 2.36
R5K: 0.804
R5K F8L: 0.689
K2A: 2.46
D12A: 0.62
I10A: 3.39

Block 4
Target: inorganic phosphate, free oxyanion
Technique: microfluidic competitive inhibition
Sample: in vitro, cell-free expressed
Concentration: not given
Setting: derived from inhibition constants, unchanged parent 615000 nM
Direction: lower = stronger binding
Quantity: phosphate dissociation constant
Starting sequence: PafA, mature enzyme, eGFP fusion (Elizabethkingia meningoseptica, UniProt Q9KJX5); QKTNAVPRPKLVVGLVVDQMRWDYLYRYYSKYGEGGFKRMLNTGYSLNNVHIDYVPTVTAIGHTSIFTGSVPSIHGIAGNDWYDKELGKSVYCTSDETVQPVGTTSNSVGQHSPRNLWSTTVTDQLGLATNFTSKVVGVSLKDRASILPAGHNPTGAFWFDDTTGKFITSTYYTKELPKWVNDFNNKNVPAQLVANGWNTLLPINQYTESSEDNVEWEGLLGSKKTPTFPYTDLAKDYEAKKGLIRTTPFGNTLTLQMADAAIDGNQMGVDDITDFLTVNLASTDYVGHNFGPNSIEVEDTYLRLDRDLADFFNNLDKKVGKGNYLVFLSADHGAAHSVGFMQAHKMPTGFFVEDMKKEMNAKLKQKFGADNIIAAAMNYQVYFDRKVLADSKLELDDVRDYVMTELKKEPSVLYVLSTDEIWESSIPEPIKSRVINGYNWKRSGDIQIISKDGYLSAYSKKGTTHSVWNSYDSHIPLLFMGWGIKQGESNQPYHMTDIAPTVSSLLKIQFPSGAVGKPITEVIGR
G222A: 421 µM
K461G: 602 µM
L364G: 494 µM
K224G: 544 µM
L25G: 537 µM
L234G: 433 µM
Y45V: 658 µM
S283G: 750 µM
K38V: 610 µM
S444G: 446 µM
H152V: 499 µM
R27V: 588 µM
V99G: 742 µM
G369V: 646 µM
Q448G: 661 µM
F67G: 346 µM
V109G: 593 µM
P293G: 540 µM

A few entries again (block 2):
CAAGUCCUGUGCUACACAUCGUAUGUACCGAAUCGGGUUUUUGGGUUUGGGUGGGAAAGUAUUAUGUUACGCCGUUCGGAUCUGCACUUC: -1.4
UUUCUCCAAGGACAUCAAGGUGCCCAAGAGCCGCUACCUGGGCUACAUCAAGGACUACGAGGGAGCGACGCUGAUGGAGUGUGAGCUGAA: -2
UCCUGUGCUACACAUCGUAUGUACCGAAUCAAAUUUUUUUAAAUUUUUAAAUUUUUAAAAAAGUAUUAUGUUACGCCGUUCGGAUCUGCA: -2.46
GUCCUGUGCUACACAUCGUAUGUACCGAAUCGGGGUUUUUGGUUUUUGGGUUUUUGGGGAAAGUAUUAUGUUACGCCGUUCGGAUCUGCA: -1.21
CACAGACAACACGCACCCACACAGACACAGAGGGAAAAGGUUGGGAUGGGGACAGGGUGCACAGCAGGGCGGGGUAGGACCCCAGCCCCU: -1.44
UCCUGUGCUACACAUCGUAUGUACCGAAUCGGGGUUUUUUGGGGUUUUUUGGUUUUUUGGAAAGUAUUAUGUUACGCCGUUCGGAUCUGC: -0.179
UUCCUUCCACGACCCCUGAAGAGCAGCGGUGGGUCUGAGCAUCCUAUCUCCAGGAAGCAGGCCAGCAGGCAAGCCAGCUGCCACCUCGUC: 0.743
